Experimental data gathered from unrelated publications.
A part holds a random share of what one study measured.
Sequence of UniProt Q9H422 (whole entry, looked up): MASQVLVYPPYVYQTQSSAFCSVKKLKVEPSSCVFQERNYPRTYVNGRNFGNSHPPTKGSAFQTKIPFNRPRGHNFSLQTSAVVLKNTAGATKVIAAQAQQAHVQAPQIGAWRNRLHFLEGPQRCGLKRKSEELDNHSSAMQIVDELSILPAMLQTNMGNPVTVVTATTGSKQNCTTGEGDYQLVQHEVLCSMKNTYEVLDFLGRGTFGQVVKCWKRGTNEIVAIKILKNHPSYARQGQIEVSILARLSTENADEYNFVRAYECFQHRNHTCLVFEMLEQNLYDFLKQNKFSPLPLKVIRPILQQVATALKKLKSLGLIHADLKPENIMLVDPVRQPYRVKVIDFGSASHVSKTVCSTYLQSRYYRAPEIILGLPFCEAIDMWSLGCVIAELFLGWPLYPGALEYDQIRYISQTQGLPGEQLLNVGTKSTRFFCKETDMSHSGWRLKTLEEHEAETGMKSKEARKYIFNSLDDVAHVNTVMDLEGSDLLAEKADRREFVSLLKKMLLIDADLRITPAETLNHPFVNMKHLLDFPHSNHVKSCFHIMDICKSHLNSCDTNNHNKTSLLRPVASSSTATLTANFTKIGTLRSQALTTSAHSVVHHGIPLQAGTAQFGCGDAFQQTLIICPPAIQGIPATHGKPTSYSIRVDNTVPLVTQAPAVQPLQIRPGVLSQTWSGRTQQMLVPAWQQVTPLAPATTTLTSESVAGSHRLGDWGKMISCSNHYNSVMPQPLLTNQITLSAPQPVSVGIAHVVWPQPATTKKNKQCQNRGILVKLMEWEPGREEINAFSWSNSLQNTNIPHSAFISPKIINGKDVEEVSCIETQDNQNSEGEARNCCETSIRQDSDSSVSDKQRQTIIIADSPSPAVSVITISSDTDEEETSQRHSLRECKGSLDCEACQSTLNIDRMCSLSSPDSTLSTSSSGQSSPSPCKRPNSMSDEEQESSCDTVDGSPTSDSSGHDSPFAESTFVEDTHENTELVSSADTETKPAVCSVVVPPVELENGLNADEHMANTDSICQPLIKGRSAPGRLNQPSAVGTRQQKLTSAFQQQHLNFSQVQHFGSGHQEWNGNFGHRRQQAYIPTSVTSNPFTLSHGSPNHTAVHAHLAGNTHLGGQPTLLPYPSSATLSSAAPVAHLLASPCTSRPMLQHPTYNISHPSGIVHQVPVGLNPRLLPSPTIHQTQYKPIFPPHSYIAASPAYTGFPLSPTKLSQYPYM
Sequence of UniProt Q8N5S9 (whole entry, looked up): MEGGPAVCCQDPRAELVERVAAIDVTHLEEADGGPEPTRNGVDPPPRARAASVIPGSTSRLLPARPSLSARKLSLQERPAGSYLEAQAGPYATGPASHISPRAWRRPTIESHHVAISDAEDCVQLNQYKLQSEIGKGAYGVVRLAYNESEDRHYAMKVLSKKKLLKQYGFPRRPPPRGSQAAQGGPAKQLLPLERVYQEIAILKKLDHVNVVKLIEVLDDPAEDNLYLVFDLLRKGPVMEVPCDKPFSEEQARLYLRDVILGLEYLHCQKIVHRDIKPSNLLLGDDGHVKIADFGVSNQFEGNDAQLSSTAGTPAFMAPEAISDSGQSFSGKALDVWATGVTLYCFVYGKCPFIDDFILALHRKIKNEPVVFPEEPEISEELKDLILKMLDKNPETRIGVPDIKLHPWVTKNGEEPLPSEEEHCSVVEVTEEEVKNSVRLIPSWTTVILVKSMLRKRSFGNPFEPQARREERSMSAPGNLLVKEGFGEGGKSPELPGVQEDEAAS
Sequence of UniProt Q13557 (whole entry, looked up): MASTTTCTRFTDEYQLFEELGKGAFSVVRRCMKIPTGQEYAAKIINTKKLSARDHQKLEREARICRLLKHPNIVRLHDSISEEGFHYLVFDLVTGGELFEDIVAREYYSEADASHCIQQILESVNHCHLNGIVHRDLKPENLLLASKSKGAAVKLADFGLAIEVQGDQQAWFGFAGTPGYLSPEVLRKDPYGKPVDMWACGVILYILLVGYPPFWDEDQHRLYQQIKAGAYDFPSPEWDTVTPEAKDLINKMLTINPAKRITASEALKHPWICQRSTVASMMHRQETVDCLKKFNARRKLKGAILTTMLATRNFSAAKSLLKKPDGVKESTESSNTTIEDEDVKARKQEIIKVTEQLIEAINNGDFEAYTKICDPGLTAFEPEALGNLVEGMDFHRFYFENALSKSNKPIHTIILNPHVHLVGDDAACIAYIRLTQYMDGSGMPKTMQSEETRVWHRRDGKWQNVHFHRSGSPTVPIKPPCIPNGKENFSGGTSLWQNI
Sequence of UniProt Q15208 (whole entry, looked up): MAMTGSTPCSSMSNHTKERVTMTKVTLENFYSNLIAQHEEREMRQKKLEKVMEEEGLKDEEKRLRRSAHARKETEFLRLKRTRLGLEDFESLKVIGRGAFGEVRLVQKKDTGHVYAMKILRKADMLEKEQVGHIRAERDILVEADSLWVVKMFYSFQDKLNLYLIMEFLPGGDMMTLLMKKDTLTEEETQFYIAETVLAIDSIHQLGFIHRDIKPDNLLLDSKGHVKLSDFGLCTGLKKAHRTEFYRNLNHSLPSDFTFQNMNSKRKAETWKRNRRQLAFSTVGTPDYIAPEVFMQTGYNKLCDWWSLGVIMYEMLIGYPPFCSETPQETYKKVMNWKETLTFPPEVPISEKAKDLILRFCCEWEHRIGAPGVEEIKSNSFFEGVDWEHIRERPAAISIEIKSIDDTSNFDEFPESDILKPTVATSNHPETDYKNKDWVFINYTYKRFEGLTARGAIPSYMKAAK
Sequence of UniProt P35916 (whole entry, looked up): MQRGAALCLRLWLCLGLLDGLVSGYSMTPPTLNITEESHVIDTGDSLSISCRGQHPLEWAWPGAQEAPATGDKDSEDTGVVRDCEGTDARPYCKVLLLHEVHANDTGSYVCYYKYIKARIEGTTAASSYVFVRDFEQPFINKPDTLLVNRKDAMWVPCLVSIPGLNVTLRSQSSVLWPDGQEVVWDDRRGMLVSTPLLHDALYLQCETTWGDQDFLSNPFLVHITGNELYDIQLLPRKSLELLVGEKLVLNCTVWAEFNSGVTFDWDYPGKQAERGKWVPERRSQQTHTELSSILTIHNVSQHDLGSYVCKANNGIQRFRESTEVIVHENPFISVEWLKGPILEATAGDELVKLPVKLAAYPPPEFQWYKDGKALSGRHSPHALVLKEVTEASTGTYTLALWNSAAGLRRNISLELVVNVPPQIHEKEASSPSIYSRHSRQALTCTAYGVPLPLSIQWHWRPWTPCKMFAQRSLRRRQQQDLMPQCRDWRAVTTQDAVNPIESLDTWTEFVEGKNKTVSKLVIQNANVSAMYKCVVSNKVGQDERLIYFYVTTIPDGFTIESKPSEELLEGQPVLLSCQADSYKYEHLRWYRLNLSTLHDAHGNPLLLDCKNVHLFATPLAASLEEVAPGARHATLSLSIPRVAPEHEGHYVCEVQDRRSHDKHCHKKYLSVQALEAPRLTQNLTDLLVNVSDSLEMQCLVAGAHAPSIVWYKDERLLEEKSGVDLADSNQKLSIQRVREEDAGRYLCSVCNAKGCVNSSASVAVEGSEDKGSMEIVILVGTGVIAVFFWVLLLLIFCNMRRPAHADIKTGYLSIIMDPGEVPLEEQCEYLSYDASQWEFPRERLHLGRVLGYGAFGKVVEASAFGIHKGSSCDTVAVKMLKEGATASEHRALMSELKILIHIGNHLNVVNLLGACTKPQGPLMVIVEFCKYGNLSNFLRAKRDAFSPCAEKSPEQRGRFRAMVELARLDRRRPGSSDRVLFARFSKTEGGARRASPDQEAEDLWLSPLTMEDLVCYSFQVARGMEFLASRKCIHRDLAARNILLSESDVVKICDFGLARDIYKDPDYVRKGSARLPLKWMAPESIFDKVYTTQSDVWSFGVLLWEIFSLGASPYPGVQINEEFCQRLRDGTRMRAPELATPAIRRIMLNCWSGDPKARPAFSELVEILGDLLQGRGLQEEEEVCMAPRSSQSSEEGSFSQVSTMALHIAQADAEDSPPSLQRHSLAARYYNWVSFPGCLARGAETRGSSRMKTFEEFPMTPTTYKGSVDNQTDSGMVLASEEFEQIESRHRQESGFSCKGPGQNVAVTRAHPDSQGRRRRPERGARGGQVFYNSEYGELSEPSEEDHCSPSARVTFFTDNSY
Sequence of UniProt Q07002 (whole entry, looked up): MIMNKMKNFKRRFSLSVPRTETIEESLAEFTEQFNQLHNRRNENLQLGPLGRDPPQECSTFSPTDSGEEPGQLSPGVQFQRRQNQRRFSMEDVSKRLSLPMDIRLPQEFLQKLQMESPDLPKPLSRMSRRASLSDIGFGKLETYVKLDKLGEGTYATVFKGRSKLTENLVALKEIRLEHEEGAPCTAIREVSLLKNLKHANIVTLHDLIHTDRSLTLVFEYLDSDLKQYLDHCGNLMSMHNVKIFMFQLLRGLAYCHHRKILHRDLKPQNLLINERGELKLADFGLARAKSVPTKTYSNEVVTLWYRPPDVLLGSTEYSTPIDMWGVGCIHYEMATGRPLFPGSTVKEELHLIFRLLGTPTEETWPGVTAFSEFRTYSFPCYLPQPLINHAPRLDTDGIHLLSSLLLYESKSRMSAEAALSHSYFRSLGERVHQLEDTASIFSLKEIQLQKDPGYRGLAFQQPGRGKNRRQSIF
Sequence of UniProt O00506 (whole entry, looked up): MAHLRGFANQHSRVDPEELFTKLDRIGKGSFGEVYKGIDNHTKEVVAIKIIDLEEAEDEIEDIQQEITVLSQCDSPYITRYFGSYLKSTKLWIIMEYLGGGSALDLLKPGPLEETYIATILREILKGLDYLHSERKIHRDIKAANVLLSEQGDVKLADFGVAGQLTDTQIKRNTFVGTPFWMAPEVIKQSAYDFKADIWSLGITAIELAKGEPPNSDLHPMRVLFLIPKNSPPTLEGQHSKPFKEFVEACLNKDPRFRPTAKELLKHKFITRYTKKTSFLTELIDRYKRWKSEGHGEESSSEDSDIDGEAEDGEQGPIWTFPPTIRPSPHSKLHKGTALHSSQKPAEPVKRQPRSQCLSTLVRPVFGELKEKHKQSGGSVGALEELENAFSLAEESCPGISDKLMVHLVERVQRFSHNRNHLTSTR

Study 1 — read-out: cell-free assay; method: competition with immobilised ligand; tested at: 0.1 µM
SMILES: CS(=O)(=O)N1CCCC(NC(=O)[C@H](CCC2CCCCC2)NC(=O)c2ccc(CNc3ncnc4c3nnn4-c3ccccc3)cc2)C1 (stereo partly drawn)
It gave 100% for remaining binding (Non-receptor tyrosine-protein kinase TYK2, JH2 (TYK2, Homo sapiens, UniProt P29597)).
It gave 89% for remaining binding (FLT3 (Homo sapiens, UniProt P36888, D835V)).
The remaining binding was 100% (NEK4 (Homo sapiens, UniProt P51957)).
For CASK (Homo sapiens, UniProt O14936): remaining binding read 100%.
For ERBB3 (Homo sapiens, UniProt P21860): remaining binding read 100%.
STK38 (Homo sapiens, UniProt Q15208) — remaining binding: 83%.
The remaining binding was 100% (HIPK3 (Homo sapiens, UniProt Q9H422)).
The remaining binding was 91% (PIK3CD (Homo sapiens, UniProt O00329)).
It gave 93% for remaining binding (CAMK2D (Homo sapiens, UniProt Q13557)).
It gave 90% for remaining binding (STK25 (Homo sapiens, UniProt O00506)).
For FLT4 (Homo sapiens, UniProt P35916): remaining binding read 81%.
It gave 100% for remaining binding (Tyrosine-protein kinase ABL1, non-phosphorylated (ABL1, Homo sapiens, UniProt P00519, F317L)).
The remaining binding was 88% (CAMKK1 (Homo sapiens, UniProt Q8N5S9)).
CDK18 (Homo sapiens, UniProt Q07002) — remaining binding: 100%.
It gave 100% for remaining binding (MAP4K1 (Homo sapiens, UniProt Q92918)).

Study 2 — read-out: enzyme activity; mode: inhibitor; tested at: 0.5 µM; relative to: control
Target: Myotonin-protein kinase (DMPK, Homo sapiens, UniProt Q09013)
Residues (Q09013 1-629): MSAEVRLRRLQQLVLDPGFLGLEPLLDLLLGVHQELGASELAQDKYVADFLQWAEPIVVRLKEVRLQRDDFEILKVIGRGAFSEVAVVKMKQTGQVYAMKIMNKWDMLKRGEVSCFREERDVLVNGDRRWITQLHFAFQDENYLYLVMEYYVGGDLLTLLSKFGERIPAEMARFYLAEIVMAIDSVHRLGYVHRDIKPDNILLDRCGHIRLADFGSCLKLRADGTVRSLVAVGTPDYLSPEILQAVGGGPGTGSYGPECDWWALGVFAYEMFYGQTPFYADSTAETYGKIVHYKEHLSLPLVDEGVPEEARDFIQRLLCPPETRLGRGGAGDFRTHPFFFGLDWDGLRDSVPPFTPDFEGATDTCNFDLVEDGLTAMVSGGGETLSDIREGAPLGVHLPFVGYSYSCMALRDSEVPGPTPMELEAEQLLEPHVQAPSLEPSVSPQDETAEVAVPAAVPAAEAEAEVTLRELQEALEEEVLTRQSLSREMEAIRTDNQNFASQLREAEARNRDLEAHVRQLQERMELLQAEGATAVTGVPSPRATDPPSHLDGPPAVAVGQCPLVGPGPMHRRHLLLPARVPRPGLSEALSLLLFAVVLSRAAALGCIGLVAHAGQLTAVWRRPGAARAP
With `NCCNc1ncc(C(N)=O)c(Nc2cccc(C(F)(F)F)c2)n1` the remaining activity was 104%.
`Oc1ccc(-c2nc(-c3ccncc3)c(-c3ccc(F)cc3)[nH]2)cc1` has a remaining activity of 106%.
`COc1cc2ncnc(Nc3ccc(F)c(Cl)c3)c2cc1OCCCN1CCOCC1` gave a remaining activity of 90.1%.
`O=C(CCCc1ccc(-c2ccccc2F)cc1)Nc1ccc(O)cc1` gave a remaining activity of 130%.
With `CO[C@H]1C[C@@H]2CC[C@@H](C)[C@@](O)(O2)C(=O)C(=O)N2CCCC[C@H]2C(=O)O[C@H]([C@H](C)C[C@@H]2CC[C@@H](O)[C@H](OC)C2)CC(=O)[C@H](C)/C=C(\C)[C@@H](O)[C@@H](OC)C(=O)[C@H](C)C[C@H](C)/C=C/C=C/C=C/1C` the remaining activity was 109%.
For `O=c1c2ccccc2[nH]c(=S)n1CCN1CCC(=C(c2ccc(F)cc2)c2ccc(F)cc2)CC1`, the remaining activity was 108%.
`CNC(=O)c1cc(Oc2ccc(NC(=O)Nc3ccc(Cl)c(C(F)(F)F)c3)cc2)ccn1` has a remaining activity of 93.2%.
`CN(C)c1ccc(C=C2C(=O)Nc3ccccc32)cc1` has a remaining activity of 105%.
For `Cc1ccc(Nc2nccc(N(C)c3ccc4c(C)n(C)nc4c3)n2)cc1S(N)(=O)=O`, the remaining activity was 93.5%.
`CC(C)[C@H](CO)Nc1nc(Nc2cc(N)cc(Cl)c2)c2ncn(C(C)C)c2n1` has a remaining activity of 99.7%.
`CCOC(=O)c1c(C)[nH]c(/C=C2\C(=O)Nc3ccccc32)c1C` gave a remaining activity of 101%.
`COc1ccc(OC)c2c(=S)c3ccccc3[nH]c12` has a remaining activity of 99.6%.
`O=C(O)c1ccc2c3c1cccc3c(=O)n1c3ccccc3nc21` gave a remaining activity of 98.9%.

Further values, each from its own experiment
For `Cc1cc(-c2ccc(/N=N/c3ccc4c(S(=O)(=O)O)cc(S(=O)(=O)O)c(N)c4c3O)c(C)c2)ccc1/N=N/c1ccc2c(S(=O)(=O)O)cc(S(=O)(=O)O)c(N)c2c1O`, the IC50 was 4.21 µM (CAMK2B (Homo sapiens, UniProt Q13554); enzyme activity, inhibitor).
`CC(C)n1cnc(-c2ccc(F)cc2)c1-c1ncc(C(=O)Nc2ccc(N3CCN(C)CC3)cc2)[nH]1` gave a treatment-related AEs of 60% (human, idiopathic pulmonary fibrosis; 30 mg twice daily, trial, without standard of care).

A few entries again (study 2):
`CCOC(=O)c1c(C)[nH]c(/C=C2\C(=O)Nc3ccccc32)c1C` gave a remaining activity of 101%.
`CNC(=O)c1cc(Oc2ccc(NC(=O)Nc3ccc(Cl)c(C(F)(F)F)c3)cc2)ccn1` has a remaining activity of 93.2%.
